# Results from different studies.
# Compare with care: the assays were run in different laboratories. ± marks the error that the study gave.
# UCHL1: Ubiquitin carboxyl-terminal hydrolase isozyme L1 (UCHL1, Homo sapiens, UniProt P09936)
# Chain of UniProt P09936 (whole entry, looked up): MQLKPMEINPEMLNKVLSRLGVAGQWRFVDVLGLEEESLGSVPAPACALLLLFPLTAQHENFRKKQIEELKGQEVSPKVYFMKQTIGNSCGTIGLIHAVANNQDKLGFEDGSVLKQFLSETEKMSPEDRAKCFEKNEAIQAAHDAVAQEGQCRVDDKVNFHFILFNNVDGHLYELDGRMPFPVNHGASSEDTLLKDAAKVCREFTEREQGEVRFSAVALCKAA
# Histone acetyltransferase RTT109 with Vps75: Histone acetyltransferase RTT109, with Vps75 (Saccharomyces cerevisiae, UniProt Q07794)
# Chain of UniProt Q07794 (whole entry, looked up): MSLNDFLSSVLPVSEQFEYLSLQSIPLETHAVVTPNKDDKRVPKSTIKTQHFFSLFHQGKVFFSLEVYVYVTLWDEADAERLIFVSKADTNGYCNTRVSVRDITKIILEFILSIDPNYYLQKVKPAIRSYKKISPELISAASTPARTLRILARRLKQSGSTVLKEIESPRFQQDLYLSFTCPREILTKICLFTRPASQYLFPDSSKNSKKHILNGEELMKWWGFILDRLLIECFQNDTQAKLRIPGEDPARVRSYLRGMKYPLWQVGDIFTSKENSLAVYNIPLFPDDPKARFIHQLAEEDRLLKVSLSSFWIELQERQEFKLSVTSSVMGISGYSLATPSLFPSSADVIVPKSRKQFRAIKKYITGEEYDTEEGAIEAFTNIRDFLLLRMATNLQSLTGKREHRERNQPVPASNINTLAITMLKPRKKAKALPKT
SMILES,tested on,assay,system,conditions,how to read,endpoint,value
Cc1ccc([C@@H]2O[C@H](CO)[C@@H](O)[C@H](O)[C@H]2O)cc1Cc1ccc(-c2ccc(F)cc2)s1,,,Japanese type 2 diabetes patients,"25 mg, day 1, 24 h urine collection",relative to: baseline,urinary potassium excretion change,4.28 mEq
N#Cc1ccc2c(c1)[C@H]1CCCN(C(=O)c3ccc4[nH]cnc4c3)[C@H]1C2,,,human males,"360 mg, day 7",,SHBG level,32.7 nmol/L
CNC(=O)c1ccc(-c2cnc3ncc(Cc4ccc5ncccc5c4)n3n2)cc1F,,,Japanese patients,"oral, 400 mg, any grade",,Vomiting dose reduction/interruption,4%
CC(C)(C(=O)N1CCOc2c(C#N)cncc2C1)C(F)F,,item: tandem gait test abnormal,"human, both sexes","oral, 15 mg twice daily, 14 days, multiple ascending dose",,subjects with TEAE,0%
Cc1cc2sc(N)nc2c2cccnc12,,,"female BALB/c mice, plasma","intraperitoneal, 30 mg/kg",,elimination rate constant,6.78e-05 s⁻¹
N#CC(=Cc1cc(F)ccc1F)C(=O)NC1CCCC1,UCHL1,"covalent, intact protein LC-MS",,12.5 µM,,labelling,15.7%
COc1cc2[nH]c(C)c(-c3ccc(C(C)=O)cc3)c(=O)c2cc1Cl,,,PAMPA,pH 7.4,,Papp,< 5 ×10⁻⁶ cm/s
CCN1/C(=C/C(C)=O)Sc2ccc(F)cc21,,,cynomolgus monkey,"oral, 100 mg/kg, 0.5 h post-dose",relative to: pre-dose,QTc interval change,99.8 ± 2.1%
COc1cc2[nH]c(C)c(-c3ccco3)c(=O)c2cc1Cl,,,PAMPA,pH 7.4,,Papp,< 5 ×10⁻⁶ cm/s
CC(C)c1ccc(S(=O)(=O)Nc2ccc(O)c(Cl)c2)cc1,Histone acetyltransferase RTT109 with Vps75,"enzyme activity, inhibitor, HTS, CPM-based, dose response",,,,IC50,> 125 µM
C=CC(=O)N1CCC(Oc2cc3c(Nc4ccc(Cl)c(Cl)c4F)ncnc3cc2OC)CC1,,,"Sprague-Dawley rat, male, plasma","oral, 2 mg/kg, added: vehicle pretreatment",,CL/F,8.83 ± 1.17 mL/min/kg
Cc1nc2ccc(OCc3ccc(C(F)(F)F)cc3)cc2[nH]1,,,"Balb/c mice, male, plasma","intravenous, 1 mg/kg",,Vz/F,2.29 ± 0.2 L/kg
COC(=O)c1c(NC(=O)Cn2cnc([N+](=O)[O-])n2)sc2c1CCC(C)C2 (stereo not shown),Trypanosoma cruzi,"reporter translation, Renilla luciferase mRNA translation",cell-free extract,40 µM,relative to: DMSO,inhibition,-4.1%
Cn1c(N)c(C(=O)CCl)c(=O)[nH]c1=O,UCHL1,"covalent, intact protein LC-MS",,12.5 µM,,labelling,15.3%
C[C@@H](N)C1CCN(S(=O)(=O)c2cccc3cnccc23)CC1,,item: Epistaxis,healthy volunteers,"150 mg, fed",,TEAE incidence,10%
Cc1cc(C#N)cc(C)c1Oc1nc(Nc2ccc(C#N)cc2)nc(N)c1Br,,solvent-shift UV,FaSSIF with 0.05% HPMC,,,maximum supersaturated concentration,75 µg/mL
COc1ccc([C@@H](O)c2cc(-c3ncnc4cc(N5CCOCC5)ccc34)c(F)cc2Cl)nn1,,,locally advanced rectal cancer patients,"100 mg, added: capecitabine and radiotherapy",,investigations TEAE,67%
COc1cc2c(Nc3ccc(Cl)c(Cl)c3F)ncnc2cc1OC[C@@H]1C[C@@H]2CN(C)C[C@@H]2C1,,,"FVB wild-type mice, both sexes, plasma","intraperitoneal infusion (osmotic pump), dose not given, 48 h",,unbound plasma concentration,26.9 ng/mL
Cl.[2H]C([2H])([2H])CC(=O)c1cnc(NC(=O)C2CC2)cc1Nc1cccc(-c2ncn(C([2H])([2H])[2H])n2)c1OC,,,"human, non-fasted","oral, 60 mg once daily, day 14, multiple dose, tablet, geometric mean",,half-life,9.56 h
Cn1c(C(F)(F)F)cc(=O)n(-c2cc(Oc3cccnc3OCC(=O)O)c(Cl)cc2F)c1=O,,,"beagle dog, male, plasma","oral capsule, 1000 mg/kg/day epyrifenacil, day 1, 90-day study",,Tmax,5 h
CC(C)[C@@H](CS(=O)(=O)C(C)C)N1C(=O)[C@@](C)(CC(=O)O)C[C@H](c2cccc(Cl)c2)[C@H]1c1ccc(Cl)cc1,,,"FVB mice Abcg2 knockout, plasma","intravenous, 20 mg/kg",,AUC(0-inf),28100 ± 4580 ng·h/mL
O=S1(=O)C=C(N2CCOCC2)c2ccccc21,Histone acetyltransferase RTT109 with Vps75,"enzyme activity, inhibitor, HTS, CPM-based, dose response",,,,IC50,> 125 µM
CC(C)c1nc(N(C)S(C)(=O)=O)nc(-c2ccc(F)cc2)c1/C=C/[C@@H](O)C[C@@H](O)CC(=O)O,,,"Wistar albino rat, both sexes, plasma","oral, 20 mg/kg, 8 h",,plasma concentration,404 ng/mL
Cc1c(Cl)c(C)[n+]([O-])c(Cl)c1-c1noc(-c2cc(O)c(O)c([N+](=O)[O-])c2)n1,,,healthy Chinese subjects,"oral, 100 mg, 4 days",,adverse drug reaction incidence,0%
CNC(=O)c1ccc(-c2cnc3ncc(Cc4ccc5ncccc5c4)n3n2)cc1F,,"item: Ascites, all grades",cancer patients,"oral, 600 mg twice daily, expansion cohort, any causality",,patients with adverse event,13%

# Some of these lines once more:
SMILES,tested on,assay,system,conditions,how to read,endpoint,value
C=CC(=O)N1CCC(Oc2cc3c(Nc4ccc(Cl)c(Cl)c4F)ncnc3cc2OC)CC1,,,"Sprague-Dawley rat, male, plasma","oral, 2 mg/kg, added: vehicle pretreatment",,CL/F,8.83 ± 1.17 mL/min/kg
Cc1nc2ccc(OCc3ccc(C(F)(F)F)cc3)cc2[nH]1,,,"Balb/c mice, male, plasma","intravenous, 1 mg/kg",,Vz/F,2.29 ± 0.2 L/kg
